Published values from different studies.
Numbered parts are unrelated; each lists some results of a single study.
Chain of UniProt Q6P2M8 (whole entry, looked up): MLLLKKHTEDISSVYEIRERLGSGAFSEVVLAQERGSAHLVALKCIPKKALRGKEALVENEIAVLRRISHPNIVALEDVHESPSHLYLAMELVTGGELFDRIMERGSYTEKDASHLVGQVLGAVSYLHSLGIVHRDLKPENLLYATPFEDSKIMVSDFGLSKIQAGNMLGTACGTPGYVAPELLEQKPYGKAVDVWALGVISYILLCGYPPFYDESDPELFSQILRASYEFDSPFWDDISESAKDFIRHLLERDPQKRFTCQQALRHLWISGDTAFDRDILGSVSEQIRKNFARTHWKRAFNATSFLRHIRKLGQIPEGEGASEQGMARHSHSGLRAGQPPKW
Chain of UniProt Q16832 (whole entry, looked up): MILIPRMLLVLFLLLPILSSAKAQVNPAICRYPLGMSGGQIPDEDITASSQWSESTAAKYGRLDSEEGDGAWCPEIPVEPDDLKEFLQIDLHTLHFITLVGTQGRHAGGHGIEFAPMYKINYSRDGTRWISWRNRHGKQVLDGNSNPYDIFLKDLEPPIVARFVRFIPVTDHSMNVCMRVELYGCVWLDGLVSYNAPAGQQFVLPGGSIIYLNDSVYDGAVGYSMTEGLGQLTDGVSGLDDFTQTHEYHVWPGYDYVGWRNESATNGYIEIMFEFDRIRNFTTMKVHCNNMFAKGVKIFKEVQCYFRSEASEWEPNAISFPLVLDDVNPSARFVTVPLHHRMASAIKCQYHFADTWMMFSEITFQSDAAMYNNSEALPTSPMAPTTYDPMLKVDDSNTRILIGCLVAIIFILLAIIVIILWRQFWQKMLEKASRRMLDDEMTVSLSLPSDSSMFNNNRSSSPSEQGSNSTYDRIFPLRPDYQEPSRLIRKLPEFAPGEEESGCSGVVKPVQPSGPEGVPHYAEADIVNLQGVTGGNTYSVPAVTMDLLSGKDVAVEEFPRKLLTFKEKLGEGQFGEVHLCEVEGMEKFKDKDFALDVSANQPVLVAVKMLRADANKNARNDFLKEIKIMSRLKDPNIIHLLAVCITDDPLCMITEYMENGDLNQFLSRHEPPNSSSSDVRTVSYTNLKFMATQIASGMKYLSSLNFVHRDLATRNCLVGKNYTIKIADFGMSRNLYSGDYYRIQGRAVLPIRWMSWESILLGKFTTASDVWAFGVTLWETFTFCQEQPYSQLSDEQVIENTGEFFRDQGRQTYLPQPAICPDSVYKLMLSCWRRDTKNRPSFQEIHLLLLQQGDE
Chain of UniProt P50613 (whole entry, looked up): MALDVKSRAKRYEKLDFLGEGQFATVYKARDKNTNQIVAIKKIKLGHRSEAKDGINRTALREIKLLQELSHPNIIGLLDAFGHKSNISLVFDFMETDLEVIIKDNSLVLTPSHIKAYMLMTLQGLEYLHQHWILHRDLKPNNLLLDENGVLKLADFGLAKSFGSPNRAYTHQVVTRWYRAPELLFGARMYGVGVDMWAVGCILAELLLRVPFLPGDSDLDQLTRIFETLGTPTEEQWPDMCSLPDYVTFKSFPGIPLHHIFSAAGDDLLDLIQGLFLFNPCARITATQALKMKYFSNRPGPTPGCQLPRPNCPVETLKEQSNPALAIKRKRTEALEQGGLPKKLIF
Chain of UniProt P32298 (whole entry, looked up): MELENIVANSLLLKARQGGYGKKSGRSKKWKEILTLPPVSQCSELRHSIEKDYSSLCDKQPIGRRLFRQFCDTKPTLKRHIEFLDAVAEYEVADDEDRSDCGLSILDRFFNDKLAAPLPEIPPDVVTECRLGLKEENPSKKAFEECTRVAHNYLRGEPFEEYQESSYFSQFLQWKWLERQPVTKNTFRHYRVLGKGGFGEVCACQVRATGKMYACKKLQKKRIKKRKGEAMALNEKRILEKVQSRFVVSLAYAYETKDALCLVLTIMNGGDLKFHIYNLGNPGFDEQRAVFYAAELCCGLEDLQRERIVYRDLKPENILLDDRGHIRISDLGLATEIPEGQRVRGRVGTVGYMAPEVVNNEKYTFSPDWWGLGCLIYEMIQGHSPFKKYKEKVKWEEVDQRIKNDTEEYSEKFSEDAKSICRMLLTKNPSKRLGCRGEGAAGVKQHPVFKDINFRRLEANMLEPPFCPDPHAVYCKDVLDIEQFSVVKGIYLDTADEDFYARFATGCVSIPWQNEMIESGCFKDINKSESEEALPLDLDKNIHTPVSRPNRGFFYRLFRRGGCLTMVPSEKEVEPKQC
Chain of UniProt Q13464 (whole entry, looked up): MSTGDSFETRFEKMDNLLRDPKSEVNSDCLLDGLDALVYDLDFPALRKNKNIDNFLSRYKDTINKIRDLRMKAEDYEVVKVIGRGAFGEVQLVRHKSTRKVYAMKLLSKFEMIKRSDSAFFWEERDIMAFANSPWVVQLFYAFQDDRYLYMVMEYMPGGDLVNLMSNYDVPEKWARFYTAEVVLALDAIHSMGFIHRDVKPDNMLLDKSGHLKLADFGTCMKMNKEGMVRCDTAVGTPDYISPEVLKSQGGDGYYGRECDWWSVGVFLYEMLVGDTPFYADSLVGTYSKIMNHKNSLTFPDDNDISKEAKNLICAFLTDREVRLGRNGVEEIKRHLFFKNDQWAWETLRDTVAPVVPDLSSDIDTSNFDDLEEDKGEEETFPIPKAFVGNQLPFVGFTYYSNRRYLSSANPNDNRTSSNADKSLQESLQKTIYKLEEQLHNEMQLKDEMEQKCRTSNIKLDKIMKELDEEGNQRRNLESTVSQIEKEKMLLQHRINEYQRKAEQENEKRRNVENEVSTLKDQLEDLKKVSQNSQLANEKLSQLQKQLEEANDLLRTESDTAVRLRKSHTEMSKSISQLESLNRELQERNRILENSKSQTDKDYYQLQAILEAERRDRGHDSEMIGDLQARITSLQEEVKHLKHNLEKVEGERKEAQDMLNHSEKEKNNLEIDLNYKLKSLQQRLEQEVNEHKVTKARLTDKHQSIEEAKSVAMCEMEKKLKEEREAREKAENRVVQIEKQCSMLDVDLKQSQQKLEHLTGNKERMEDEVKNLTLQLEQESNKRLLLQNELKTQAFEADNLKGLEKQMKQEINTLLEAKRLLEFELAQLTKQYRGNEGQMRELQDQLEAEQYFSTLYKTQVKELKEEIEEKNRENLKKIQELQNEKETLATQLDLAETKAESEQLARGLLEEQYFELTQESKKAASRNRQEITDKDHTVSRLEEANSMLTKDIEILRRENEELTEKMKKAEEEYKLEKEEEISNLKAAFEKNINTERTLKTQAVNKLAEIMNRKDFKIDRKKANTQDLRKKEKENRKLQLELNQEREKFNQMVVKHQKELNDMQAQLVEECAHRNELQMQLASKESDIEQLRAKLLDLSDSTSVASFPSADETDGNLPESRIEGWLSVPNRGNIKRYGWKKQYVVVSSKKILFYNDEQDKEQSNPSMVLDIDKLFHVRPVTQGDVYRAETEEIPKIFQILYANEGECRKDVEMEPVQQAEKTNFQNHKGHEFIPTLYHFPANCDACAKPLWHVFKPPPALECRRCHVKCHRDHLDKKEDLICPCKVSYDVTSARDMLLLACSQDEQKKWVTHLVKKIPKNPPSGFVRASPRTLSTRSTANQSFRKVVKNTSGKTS
Chain of UniProt P31751 (whole entry, looked up): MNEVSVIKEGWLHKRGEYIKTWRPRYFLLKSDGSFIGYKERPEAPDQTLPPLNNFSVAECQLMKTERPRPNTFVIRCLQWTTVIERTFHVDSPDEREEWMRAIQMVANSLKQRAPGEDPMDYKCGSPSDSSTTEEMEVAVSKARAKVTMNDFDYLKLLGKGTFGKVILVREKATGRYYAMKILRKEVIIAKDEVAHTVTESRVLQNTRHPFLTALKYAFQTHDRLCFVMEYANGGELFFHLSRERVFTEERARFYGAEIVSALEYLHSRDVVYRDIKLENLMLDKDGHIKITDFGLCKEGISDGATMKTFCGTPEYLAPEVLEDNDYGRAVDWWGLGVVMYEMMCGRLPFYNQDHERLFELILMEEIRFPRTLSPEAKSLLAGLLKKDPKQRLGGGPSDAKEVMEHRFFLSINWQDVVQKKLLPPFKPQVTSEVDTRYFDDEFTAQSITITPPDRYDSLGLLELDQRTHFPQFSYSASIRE
Chain of UniProt Q16539 (whole entry, looked up): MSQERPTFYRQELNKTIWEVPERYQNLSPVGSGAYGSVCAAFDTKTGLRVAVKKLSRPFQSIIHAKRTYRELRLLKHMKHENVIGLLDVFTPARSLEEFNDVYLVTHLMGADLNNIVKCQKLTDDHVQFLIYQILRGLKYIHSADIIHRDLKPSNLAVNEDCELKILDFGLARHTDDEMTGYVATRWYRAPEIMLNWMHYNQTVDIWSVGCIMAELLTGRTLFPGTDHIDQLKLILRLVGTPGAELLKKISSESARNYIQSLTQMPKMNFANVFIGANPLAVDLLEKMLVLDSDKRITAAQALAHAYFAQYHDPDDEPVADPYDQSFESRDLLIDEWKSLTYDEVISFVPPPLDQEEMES
Chain of UniProt O75914 (whole entry, looked up): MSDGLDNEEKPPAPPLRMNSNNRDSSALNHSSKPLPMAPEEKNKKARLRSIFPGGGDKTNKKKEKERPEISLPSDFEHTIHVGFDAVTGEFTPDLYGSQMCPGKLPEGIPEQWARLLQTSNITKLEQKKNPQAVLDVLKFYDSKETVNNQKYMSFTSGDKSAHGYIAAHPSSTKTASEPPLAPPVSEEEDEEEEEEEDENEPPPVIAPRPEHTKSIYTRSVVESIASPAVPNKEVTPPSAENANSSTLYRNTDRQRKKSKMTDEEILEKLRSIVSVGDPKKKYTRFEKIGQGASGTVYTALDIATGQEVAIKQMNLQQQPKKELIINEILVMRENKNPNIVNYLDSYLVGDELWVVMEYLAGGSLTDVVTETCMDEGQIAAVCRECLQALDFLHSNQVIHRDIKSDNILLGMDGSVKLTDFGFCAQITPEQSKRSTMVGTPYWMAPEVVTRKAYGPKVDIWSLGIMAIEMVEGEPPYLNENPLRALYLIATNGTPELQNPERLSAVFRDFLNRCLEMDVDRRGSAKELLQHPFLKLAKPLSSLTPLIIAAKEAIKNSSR

Study 1 — host: female C57BL/6 mouse; medium: plasma; route: oral; dose: 10 mg/kg; time: 7 h
| SMILES | concentration [nM] |
| --- | --- |
| CN(C(=O)c1ccn2ncc(-c3ccc(C(N)=O)cc3)c2c1)c1ccc(C#N)cn1 | 350 |
| COC(=O)c1cc(Cl)ccc1N(C)C(=O)c1ccn2ncc(-c3ccc(C(N)=O)cc3)c2c1 | 10.1 |
| CCOC(=O)CN(C(=O)c1ccn2ncc(-c3ccc(C(=O)NC)cc3)c2c1)c1ccc(Cl)cc1 | 98.5 |
| CNC(=O)c1ccc(-c2cnn3ccc(C(=O)N(C[C@H]4CCC(=O)O4)c4ccc(OC(F)(F)F)cc4)cc23)cc1 | 2.8 |

Study 2 — SMILES: O=C1c2ccccc2-c2n[nH]c3cccc1c23; effect on: enzyme activity; mode: inhibitor; concentration: 0.5 µM; reference: control
| target | remaining activity [%] |
| --- | --- |
| Serine/threonine-protein kinase PAK 3 (PAK3, Homo sapiens, UniProt O75914) | 90.7 |
| Hepatocyte growth factor receptor (MET, Homo sapiens, UniProt P08581) | 112 |
| Discoidin domain-containing receptor 2 (DDR2, Homo sapiens, UniProt Q16832) | 102 |
| Misshapen-like kinase 1 (MINK1, Homo sapiens, UniProt Q8N4C8) | 67.7 |
| Dual specificity mitogen-activated protein kinase kinase 1 (MAP2K1, Homo sapiens, UniProt Q02750) | 96.4 |
| G protein-coupled receptor kinase 4 (GRK4, Homo sapiens, UniProt P32298) | 96.6 |
| Tyrosine-protein kinase TXK (TXK, Homo sapiens, UniProt P42681) | 73.4 |
| Dual specificity protein kinase CLK3 (CLK3, Homo sapiens, UniProt P49761) | 38.6 |
| RAC-beta serine/threonine-protein kinase (AKT2, Homo sapiens, UniProt P31751) | 96 |
| Rho-associated protein kinase 1 (ROCK1, Homo sapiens, UniProt Q13464) | 98.2 |
| Mitogen-activated protein kinase 14 (MAPK14, Homo sapiens, UniProt Q16539) | 97.9 |
| Calcium/calmodulin-dependent protein kinase type IV (CAMK4, Homo sapiens, UniProt Q16566) | 92.9 |
| Calcium/calmodulin-dependent protein kinase type 1B (PNCK, Homo sapiens, UniProt Q6P2M8) | 102 |

Study 3 — effect on: cell-free assay; method: competition with immobilised ligand; concentration: 1 µM
SMILES: CCCCN(CCCC)C(=O)CN1C[C@@H](c2cc(OC)c3c(c2)OCO3)[C@H](C(=O)O)[C@H]1CC(C)(C)CCC
| target | remaining binding |
| --- | --- |
| Mast/stem cell growth factor receptor Kit (KIT, Homo sapiens, UniProt P10721, V559D/V654A) | 100% |
| Serine/threonine-protein kinase 26 (STK26, Homo sapiens, UniProt Q9P289) | 100% |
| Serine/threonine-protein kinase Chk2 (CHEK2, Homo sapiens, UniProt O96017) | 87.8% |
| Serine/threonine-protein kinase PLK4 (PLK4, Homo sapiens, UniProt O00444) | 84.1% |
| Ephrin type-A receptor 8 (EPHA8, Homo sapiens, UniProt P29322) | 99.9% |
| Cyclin-dependent kinase 7 (CDK7, Homo sapiens, UniProt P50613) | 89.5% |
| Epidermal growth factor receptor (EGFR, Homo sapiens, UniProt P00533, T790M) | 86.7% |
| Tyrosine-protein kinase ABL1, phosphorylated (ABL1, Homo sapiens, UniProt P00519, H396P) | 100% |

Mixed results
| Structure (SMILES) | host | dose | setting | measurement | value |
| --- | --- | --- | --- | --- | --- |
| CC(C)n1cnc(-c2ccc(F)cc2)c1-c1ncc(C(=O)Nc2ccc(N3CCN(C)CC3)cc2)[nH]1 | IPF patients | 60 mg once daily | adverse event | Arrhythmia incidence | 0% |

Repeated from above (study 2):
| target | remaining activity [%] |
| --- | --- |
| Misshapen-like kinase 1 (MINK1, Homo sapiens, UniProt Q8N4C8) | 67.7 |
| Dual specificity mitogen-activated protein kinase kinase 1 (MAP2K1, Homo sapiens, UniProt Q02750) | 96.4 |
| G protein-coupled receptor kinase 4 (GRK4, Homo sapiens, UniProt P32298) | 96.6 |
| Tyrosine-protein kinase TXK (TXK, Homo sapiens, UniProt P42681) | 73.4 |
